Assay results collected from several papers.
A part holds a random share of what one study measured. Substitutions count along the parent as printed.

Sample 1 — method: competition protein-binding microarray; molecule type: double-stranded DNA, one strand shown; matrix: in vitro; tested at: 2 µM; with: Cbf1 competitor, 0.05 µM; direction: higher = stronger binding
Target: Phosphate system positive regulatory protein PHO4, full length, GST-tagged (PHO4, Saccharomyces cerevisiae, UniProt P07270, residues 1-312)
Notes: whole 60-bp probe, lowest competitor level
Residues (chain): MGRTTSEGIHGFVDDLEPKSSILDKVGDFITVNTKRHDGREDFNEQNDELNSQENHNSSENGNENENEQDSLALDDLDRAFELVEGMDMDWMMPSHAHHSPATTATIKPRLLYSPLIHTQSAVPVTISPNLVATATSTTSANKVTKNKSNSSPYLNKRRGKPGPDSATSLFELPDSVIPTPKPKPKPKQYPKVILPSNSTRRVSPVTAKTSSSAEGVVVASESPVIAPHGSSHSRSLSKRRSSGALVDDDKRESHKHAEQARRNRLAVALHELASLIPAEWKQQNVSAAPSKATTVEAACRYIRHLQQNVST
Sequence	fluorescence intensity [a.u.]
AAAGCGGTAATTTGATATGTGGGTGCAGATATCTATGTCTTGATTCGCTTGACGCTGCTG	4870
CTTCTGTAAATTTTTCACGTGACTTGACGCGCCCCGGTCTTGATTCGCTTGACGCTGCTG	10000
AAATTACTAAGTTGCGACGTGGGTGACGCCGTATGAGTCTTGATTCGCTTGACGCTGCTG	6270
CAGAAACCAACGATGCATGTGTGGGTTTGCATATGAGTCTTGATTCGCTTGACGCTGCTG	8470
CATACCCAACCTTTTCACGTGCGCTAAGATATTTGTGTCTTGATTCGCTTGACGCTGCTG	15000
CGCTTGTACAAGCTGAACGTGAGAAGCAACGATCCTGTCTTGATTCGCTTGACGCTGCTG	6050
CTTTCCCGATCTTGGGCGGTGGGTGTAGCACATTTGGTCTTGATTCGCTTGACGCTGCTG	5090
CAAAGAACATCAAGGCTCGTGTTGGTTCTCTACCAGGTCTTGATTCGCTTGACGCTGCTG	9350
TCAAGATTGGTGGCGCTCGTGAAATAATGCCATTGCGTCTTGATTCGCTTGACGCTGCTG	4770
AAGGGACGGATTCAAGCCGTGTCTGTGAGCATCCATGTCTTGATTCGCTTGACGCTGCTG	4210
TGATCCGTTCGCAATCACGTTGTTACTATTCGAGGAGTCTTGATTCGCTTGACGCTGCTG	12000
AAAGCGGTAATTTGGACTGTGGGTGCAGATATCTATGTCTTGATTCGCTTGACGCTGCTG	3850
TGCGCAACAACTTTTCACGTGCCATTATGTCTAGAAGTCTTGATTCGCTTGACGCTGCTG	15400
CGGGGTTAAGTTTGAGCTGTGGGTGGCTTGCAGCAGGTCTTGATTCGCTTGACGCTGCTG	4390
CAAAATCTTACCAGAAACGTGCTTTCTTCTGGCTTCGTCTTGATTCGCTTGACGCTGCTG	13700
AGGCAAGAAAGAGGATGCGTGCCGAAGCTCGGTTAGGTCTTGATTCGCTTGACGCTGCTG	8390
TGATCGCGCAGGATGGGACAATTAAACGATCTTTGCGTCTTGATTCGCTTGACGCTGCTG	3240
GCAATCGATAACAGGGACGTGCGATGCTAATGTAATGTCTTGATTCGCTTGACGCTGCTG	7730
ATTAAAATCATTTAGTCCTTTATCTCTTATCCTTTTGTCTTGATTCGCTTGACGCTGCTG	3040
GTTTACTATTTATGCAACGTGGTAATAAGACTGTCTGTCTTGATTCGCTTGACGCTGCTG	13100
TCTCCACCTCTACGACCCGTGCGGAAGGTGGAAACCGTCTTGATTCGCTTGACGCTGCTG	8300
TAACGCTGGGTTTTGCACGTGTTGATAATTACATCGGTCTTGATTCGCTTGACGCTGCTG	18700
TCGCCCAATGAGACGCACAATCAAGGCTATGGCTCGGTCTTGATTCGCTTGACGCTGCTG	3700
CGACGCACCGAACGATACGGGGCTTGGCTGTTTTATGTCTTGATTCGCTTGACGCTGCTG	2840
TTGCAAAAAAAGAATGGCGTGGGTAGGGGCGATTATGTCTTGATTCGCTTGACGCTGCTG	7010

Sample 2 — target: CCNB2, cyclin fold, Cln2 fusion (human); method: yeast growth competition, sequencing; matrix: yeast; notes: weak parent motif; reference: not given; direction: higher = stronger binding
Starting sequence: MASTL docking peptide (human); PMIAKNLMCELDE
Variant	normalised enrichment score
C9S	0.602
E10T	-0.492
K5H	-0.0503
L11G	0.066
A4C	0.705
C9Q	1.14
L11P	-0.308
M8A	0.0524
L11E	0.202
K5F	-0.245
E10L	1.31
I3A	-0.0495
A4V	0.662
K5P	0.0087
A4D	-0.157
N6Y	0.12
N6K	0.343

Sample 3 — method: protein-binding microarray; molecule type: double-stranded DNA, one strand shown; matrix: in vitro; tested at: not given; direction: higher = stronger binding
Target: Protein C-ets-1 (ETS1, Homo sapiens, UniProt P14921, residues 1-441, K379A, full length assumed)
Notes: k-mer, scored over probes, only values ≥0.25
Construct (chain): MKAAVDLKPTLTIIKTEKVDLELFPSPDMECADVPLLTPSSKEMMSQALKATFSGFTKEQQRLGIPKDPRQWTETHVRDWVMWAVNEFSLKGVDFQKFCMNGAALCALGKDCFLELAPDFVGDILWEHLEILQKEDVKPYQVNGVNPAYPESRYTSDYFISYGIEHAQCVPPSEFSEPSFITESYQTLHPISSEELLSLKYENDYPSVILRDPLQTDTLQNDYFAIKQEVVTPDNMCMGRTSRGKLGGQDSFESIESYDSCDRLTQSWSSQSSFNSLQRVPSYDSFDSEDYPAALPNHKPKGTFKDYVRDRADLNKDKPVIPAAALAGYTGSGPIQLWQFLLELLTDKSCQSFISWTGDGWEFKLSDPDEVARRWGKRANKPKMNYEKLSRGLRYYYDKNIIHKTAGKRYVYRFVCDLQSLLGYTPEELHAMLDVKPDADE
Sequence	E-score
ACCGGCGA	0.375
GACCGGCA	0.29
AACCGGCT	0.317
CGACGTCG	0.31
TACATATA	0.282
ACCCCTCC	0.252
CCCGGTTA	0.392
CCGGTGAA	0.331
AGTACGTC	0.28
GGCGGGGA	0.352
ATTGCAAT	0.32
CCGGAGTC	0.27
ACGACCGG	0.375
CGGTTACA	0.306
GGACACAC	0.273
GTAAACGA	0.269
ACCGGTCC	0.41
CCGTCGCC	0.323
CCGGAAGC	0.449

Sample 4 — method: RNA Bind-n-Seq; molecule type: RNA; matrix: in vitro; tested at: 365 nM; reference: no-protein control; direction: higher = stronger binding
Target: RNA binding protein fox-1 homolog 2, RRM domain, GST-SBP tag (RBFOX2, Homo sapiens, UniProt O43251-10, residues 100-194)
Notes: natural RNA segment, single round, ends assumed
Residues (chain): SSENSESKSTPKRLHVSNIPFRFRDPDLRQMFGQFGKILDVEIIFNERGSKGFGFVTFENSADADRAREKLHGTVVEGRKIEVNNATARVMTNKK
Sequence	RBNS enrichment (R)
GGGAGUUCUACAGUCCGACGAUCAAAUAAGUCACCGUGUUGGAUUGAAAGCUUCAAAAUUUGAAAGAAUUCCAUCAAAUACUUGCUGUGUAAAUGUUUCUGGACUUUAUGUUAUUUAAUUUACUGACUGAAAUUGGAAUUCUCGGGUGCCAA	0.773
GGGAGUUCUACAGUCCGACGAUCAGUCCUUCACCCCCAAGCACCACUGUACAGACUGGGGACCAGCCCCUUCCCUGCCUGUGUCUCUUCCCAAACCCCUGUAGGGGUGGUGAGAAGAGGAGGGGGGGAGGGGAUGGAAUUCUCGGGUGCCAA	0.316
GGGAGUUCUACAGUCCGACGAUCACAAUGACGAAUCAUUCCAAGGCCAAGCUGCAACUGAGCCACUCACCCACCAACAGGAAGGCCUGGUGAAGGUUCAGGAAGUCUGGAGAGUCUCCCCAGACCAAGGUCAGUGGAAUUCUCGGGUGCCAA	0.365
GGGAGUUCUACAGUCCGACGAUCUGCAGCUAACCAAGGACUCCUGUGUUUCUAUAAGCUAAUGCUCCAGAAACUUUGCCAACCUGUUAGUGUACACACACUGAGGGGAGUGCUCCCGGUGAAUAUUAUCAUAGUGGAAUUCUCGGGUGCCAA	0.355
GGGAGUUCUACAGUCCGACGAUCCGCCUGUGUGAACCAGGCACAGGAAAACAAACUCCUACAGGCUGUCAUGCUCCUGCAGGAAGAUGAGUCAUUUUUAGCACCACCUGAAGACUUUUAUUUAAAACAGCUUUUGGAAUUCUCGGGUGCCAA	0.443
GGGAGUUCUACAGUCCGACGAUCGGUGGGAGGGCGCUCCUGUUCCCAUCUCUGUGUUCCCUGGAGGCAGGUAUCACAAAGCAUUUGUGAAUUGCUUUAGGUGCAGGGACACCACCCACUCAGGACUCUUCCCCUGGAAUUCUCGGGUGCCAA	0.296
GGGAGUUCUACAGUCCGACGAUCAAAACAUGACCACUCUUGGCUAUUGAAGAUGCUGCCUGUAUUUGAGAGACUGCCAUACAUAAUAUAUGACUUCCUAGGGAUCUGAAAUCCAUAAACUAAGAGAAACUGUGUGGAAUUCUCGGGUGCCAA	0.579
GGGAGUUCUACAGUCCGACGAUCAGGGAAGAGGGUCGAGAGGGUUCCACUGUCUUGAGAGCUUCCUUUUGCUUUCUUCUCUUGCCUCUGAGAACAUCAGCCUGGAGGCCUGUCAGGCUACGGGCUGCCUGAGUUGGAAUUCUCGGGUGCCAA	0.574
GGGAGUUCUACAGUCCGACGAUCGUAAGAGAGCAAAGUUUCCUUCCUUUCUUCUCUUUCUUCAUUUUCUUUUUUUCUUUUUUGCCUUUUAUUCCUUUAAAAUUUCGCCUGGCAAAAAAUAAAUAAAUGGAACUUGGAAUUCUCGGGUGCCAA	0.639
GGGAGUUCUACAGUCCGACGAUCGAGCCUGUAUAUAAAUUAAAAUAGUCAAGACAACACUGACCUUGCACUUGUACAUAACUAUACAGUAGUGUCCAGAAUGUUCAGACAUUCGGAGUGUACAUAAAACAGAAUGGAAUUCUCGGGUGCCAA	0.52
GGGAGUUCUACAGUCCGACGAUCUAAUGCAAAUGUUUCAAAACUGGGUUUCUGAUAUUUGUAAAUGUGUUUCUUUAUUAGAUAAGAGUGUAUUACCAUUAAAGUCAUUAGUAUAAUAUUGCUUUCAAAAAGAAUGGAAUUCUCGGGUGCCAA	0.637
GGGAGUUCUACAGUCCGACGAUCUUUGGGCACAUUUUACUUAGCUGGAGAACUAGGUUUAAAACAGCCUGGGUAGGAAAAUUAGAAGCAAGCUGGAUGCAGUGGCUCAUGCCUGUAAUCCCAACACUUUUGGGUGGAAUUCUCGGGUGCCAA	0.511

Sample 5 — method: protein binding microarray; molecule type: double-stranded DNA, one strand shown; matrix: in vitro; tested at: not given; reference: not given; direction: higher = stronger binding
Target: Histone acetyltransferase KAT6A, winged helix 2, GST fusion (KAT6A, Homo sapiens, UniProt Q92794, residues 85-181)
Notes: 8-mer, flanks averaged, mean of 2 arrays, mostly near background
Construct (chain): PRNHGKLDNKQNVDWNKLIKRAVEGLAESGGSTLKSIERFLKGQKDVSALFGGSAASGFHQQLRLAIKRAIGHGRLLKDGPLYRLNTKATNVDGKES
Sequence	E-score
AAAAGTTC	-0.00138
GCGACACC	0.0312
ACATAAAA	-0.0776
AAGGCCTA	-0.151
GCATAAGC	0.0896
CACACATG	-0.235
CGCTCAGA	0.0546
ACCGATCA	0.0345
CATGTTCA	-0.312
GTGCCCCA	0.11
CTCAAAAA	-0.0487
ACTCCTCC	0.0258
AAATACCG	0.0492
TGCGATAA	-0.00965
CACTCAGG	0.109
AGTCCGGA	0.0279
AAAGGTCC	0.0333
CTTACAGA	-0.107
GCAATCAA	0.0808
ACCGTACG	-0.223

A few entries again (sample 3):
Sequence	E-score
GACCGGCA	0.29
AACCGGCT	0.317
CGACGTCG	0.31
TACATATA	0.282
ACCCCTCC	0.252
CCCGGTTA	0.392
CCGGTGAA	0.331
AGTACGTC	0.28
GGCGGGGA	0.352
ATTGCAAT	0.32
CCGGAGTC	0.27
ACGACCGG	0.375
CGGTTACA	0.306
GGACACAC	0.273
